Measurements of several laboratories.
“And” joins repeats or separate records; there may be more than shown.

Compound	target	assay	system	setting	scale	measurement	value
Cc1ccc2c(c1)nc(NC(=O)c1cccc(C(F)(F)F)c1)n2[C@H]1CC[C@H](N)CC1	Trypanosoma brucei CLK1 wild type	differential scanning fluorimetry				melting temperature	41.3 °C and 41.4 °C and 41.2 °C
CCCCCCCCCCCC(=O)C(C)C(=O)N1CCC[C@H]1C(=O)NC(C)(C)C(=O)NC(C)(C)C(=O)NC(C)(C)C(=O)N[C@](C)(CC)C(=O)NCCC(=O)N[C@@H](C)C(=O)N[C@](C)(CC)C(=O)N[C@@H](C)C(=O)N[C@@H](CC(C)C)C(=O)N[C@](C)(CC)C(=O)NCCC(=O)N[C@@H](C)C(=O)N[C@](C)(CC)C(=O)NCCC(=O)N[C@@H](C)C(=O)NC(C)(C)C(=O)NC(C)(C)C(=O)NC(C)(C)C(=O)N[C@@H](C)C(=O)N[C@@H](CC(=O)O)C(=O)O (some centres unmarked)	chitin	pull-down, LC-MS		1 h, pH 7.0, 30 °C, together with: chitin 1 mg/mL	higher = less bound	unbound compound (MS peak area)	1610 a.u. and 1540 a.u.
C[C@@H]1NC(=O)[C@H](CCCNC(=N)N)NC(=O)[C@H](Cc2ccc3ccccc3c2)NC(=O)[C@H]2CCCCN2C(=O)[C@@H]([C@H](C)O)NC(=O)[C@H](Cc2ccc(F)cc2)NC(=O)[C@@H](Cc2ccc(F)cc2)NC(=O)c2cc3cc(c2)C(=O)NC[C@H](NC(=O)[C@@H](Cc2ccccc2)NC1=O)C(=O)N[C@@H](Cc1ccccc1)C(=O)N[C@@H](Cc1ccc2ccccc2c1)C(=O)N[C@@H](CCCNC(=N)N)C(=O)N[C@@H](CCCNC(=N)N)C(=O)N[C@@H](CCCNC(=N)N)C(=O)N[C@@H](CCCNC(=N)N)C(=O)N[C@H](C(=O)N[C@@H](CCCCN)C(N)=O)CNC3=O	Pin1 human	inhibitor, Western blot	HeLa	about 1 µM, plateau level	reference: untreated	PML protein level	3.3 fold
Cc1ccc2c(n1)c(-c1cccc(S(C)(=O)=O)c1)c(C)n2C/C(F)=C/CN	L-type calcium channel, rat, Phenylalkylamine site	radioligand binding, Eurofins SafetyScreen		10 µM		inhibition	63%
CC[C@@H]1CN2CCc3c([nH]c4cccc(OC)c34)[C@@H]2C[C@@H]1/C(=C\OC)C(=O)OC	rabbit anti-mitragynine polyclonal IgG	antigen binding, competitor, competitive indirect ELISA	5% methanol	30 min antibody-standard, 60 min antibody-antigen incubation		IC50	0.43 µg/mL and 0.41 µg/mL
COc1ccccc1-c1n[nH]c2nc(NC3CCN(C(=O)Cc4ccc(F)cc4F)CC3)ncc12	CKS1 LINJ.32.3940	bead competition pull-down	Leishmania donovani extract	10 µM	reference: vehicle	relative captured amount	0.65
CC(C)OC(=O)OCOC(=O)C(CCC(=O)O)CP(=O)(OCOC(=O)OC(C)C)OCOC(=O)OC(C)C (centres unmarked)	PSMA	PET	mouse bearing 22Rv1 tumour, tumour	intravenous, 0.25 mg/kg, 15 min before, imaging at 60 min, together with: [18F]F-DCFPyL	reference: vehicle	radioligand uptake	no effect
COc1ccccc1-c1n[nH]c2nc(N[C@H]3CC[C@H](NS(=O)(=O)CC(C)C)CC3)ncc12	LINJ.27.0510	bead competition pull-down	Leishmania extract	1.25 µM	reference: vehicle	relative captured amount	0.92
Nc1ncc(-c2cc(-c3cnn(CC(F)(F)F)c3)ncc2F)nc1C(=O)NC1CNCC(F)C1 (centres unmarked)	ABL1(Q252H)-phosphorylated	KINOMEscan competition binding		1 µM	reference: DMSO control	remaining binding	82%
CCc1nn(C)c2nc(-c3ccc(C(=O)O)cc3)nc(NCc3ccccc3)c12	PDE1, guinea pig	inhibitor	heart			IC50	600 nM
CC[C@H](C)[C@@H]1NC(=O)CNC(=O)[C@H](CC(=O)O)NC(=O)[C@H](CC(=O)O)NC(=O)[C@@H]2CSSC[C@@H]3NC(=O)[C@H](Cc4c[nH]cn4)NC(=O)[C@H](CCCNC(=N)N)NC(=O)[C@H](CCCNC(=N)N)NC(=O)[C@@H](NC(=O)[C@H](CO)NC(=O)[C@@H](N)Cc4c[nH]cn4)CSSC[C@H](NC(=O)[C@H](C)NC(=O)[C@H](Cc4c[nH]c5ccccc45)NC(=O)CNC(=O)[C@H](CSSC[C@@H](C(=O)N[C@@H](CCCCN)C(=O)N4CCC[C@H]4C(=O)N[C@@H](CC(C)C)C(=O)N[C@@H](CCCNC(=N)N)C(=O)N[C@H](C(=O)O)C(C)C)NC1=O)NC(=O)[C@H](CCCNC(=N)N)NC(=O)[C@H](CCCNC(=N)N)NC(=O)[C@H](CC(N)=O)NC(=O)[C@H](CCC(=O)O)NC(=O)[C@H](Cc1c[nH]cn1)NC3=O)C(=O)N[C@@H](Cc1ccc(O)cc1)C(=O)N2	hKv1.2 human			concentration not given		ion current	no effect

For quick reference, copied from above:
Compound	target	assay	system	setting	scale	measurement	value
COc1ccccc1-c1n[nH]c2nc(NC3CCN(C(=O)Cc4ccc(F)cc4F)CC3)ncc12	CKS1 LINJ.32.3940	bead competition pull-down	Leishmania donovani extract	10 µM	reference: vehicle	relative captured amount	0.65
